Published values from different studies.
Numbered parts are unrelated; each lists some results of a single study. Positions count from the first letter of the parent shown.

Block 1
Target: CCNB1, cyclin fold, Cln2 fusion (human)
Method: yeast growth competition, sequencing
Sample: yeast
Notes: strong parent motif
Relative to: not given
Reading: higher = stronger binding
Parent: PKN2 docking peptide (human); VSAVRKLDFSDTM; partner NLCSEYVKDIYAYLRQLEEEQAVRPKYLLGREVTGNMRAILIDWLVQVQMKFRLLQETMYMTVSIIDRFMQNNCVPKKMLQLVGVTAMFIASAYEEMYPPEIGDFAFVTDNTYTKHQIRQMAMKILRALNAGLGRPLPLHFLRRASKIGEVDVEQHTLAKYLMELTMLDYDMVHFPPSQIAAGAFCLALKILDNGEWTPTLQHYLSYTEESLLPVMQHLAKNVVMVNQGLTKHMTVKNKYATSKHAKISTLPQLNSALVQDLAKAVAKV
Under “normalised enrichment score”, `T12Y` is recorded as 3.62.
`S2V` — result for “normalised enrichment score”: 2.16.
Under “normalised enrichment score”, `S2C` is recorded as 3.59.

Block 2
Target: Centromere-binding protein 1, full length, N-terminal tag (CBF1, Saccharomyces cerevisiae, UniProt P17106, residues 1-351)
UniProt P17106, sequence (whole entry, looked up): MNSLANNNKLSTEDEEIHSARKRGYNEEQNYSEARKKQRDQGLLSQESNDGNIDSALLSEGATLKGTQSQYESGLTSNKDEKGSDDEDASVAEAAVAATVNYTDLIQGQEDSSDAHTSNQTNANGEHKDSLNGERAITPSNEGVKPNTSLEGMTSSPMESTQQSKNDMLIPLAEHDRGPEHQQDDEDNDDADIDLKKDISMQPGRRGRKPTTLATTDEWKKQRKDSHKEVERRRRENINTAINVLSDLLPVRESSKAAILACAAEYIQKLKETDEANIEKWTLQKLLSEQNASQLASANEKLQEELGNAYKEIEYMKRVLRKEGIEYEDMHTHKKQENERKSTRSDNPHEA
Method: protein-binding microarray
Molecule type: double-stranded DNA, one strand shown
Sample: in vitro
Concentration: 0.8 µM
Notes: whole 60-bp probe, no competitor
Reading: higher = stronger binding
All sequences stand within: … GTCTTGATTCGCTTGACGCTGCTG
With `CCTAACTACTATAGTCACATATAATAGCTTCGTACA` the fluorescence intensity was 508 a.u.
With `CTAATTTAACTTAGCTGCATCACCGTTGAGCCTTTC` the fluorescence intensity was 528 a.u.
For `GAAATGCCTTCGGTTCACATGGTAAACTCGAGCTAG`, the fluorescence intensity was 661 a.u.
`GAATAAAAGCGTTTTATGGTGATGACTAAGAAATAG` gave a fluorescence intensity of 703 a.u.
The fluorescence intensity of `CCTAACTACTATACAAGTGTGACATAGCTTCGTACA` is reported as 573 a.u.
With `GAATAAGGCCTTTATGGTGTGAAGTGGGTTTTGTAG` the fluorescence intensity was 514 a.u.
`CTATCTTCCAGCTTAAACGTGCTTCGTCACTCGTTC` gave a fluorescence intensity of 607 a.u.
For `GAATGCTGAAGTCATCACCAAAATTTTTCATTTTAG`, the fluorescence intensity was 528 a.u.
For `GAAGGCGGAAAAGCTCACGTGTGAAGAAGAAAATAG`, the fluorescence intensity was 3320 a.u.
The fluorescence intensity of `GAAGGGTGCGTAAGTATGGTGATGCATTTTGTTTAG` is reported as 545 a.u.

Block 3
Target: Histone acetyltransferase KAT6A, winged helix 2, GST fusion (KAT6A, Homo sapiens, UniProt Q92794, residues 85-181)
Method: protein binding microarray
Molecule type: double-stranded DNA, one strand shown
Sample: in vitro
Concentration: not given
Notes: 8-mer, flanks averaged, mean of 2 arrays, mostly near background
Relative to: not given
Reading: higher = stronger binding
Target sequence (chain): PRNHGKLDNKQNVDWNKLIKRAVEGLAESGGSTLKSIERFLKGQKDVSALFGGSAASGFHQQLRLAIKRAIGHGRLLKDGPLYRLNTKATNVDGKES
For `GCGGGCAA`, the E-score was 0.155.
For `AGCGCTCA`, the E-score was 0.0289.
For `GGTAACAC`, the E-score was -0.011.
The E-score of `TAACTTAA` is reported as 0.155.
For `CAGTGCTA`, the E-score was 0.00361.
For `AGCACCTC`, the E-score was 0.0177.
`AATTCCGA` gave an E-score of 0.0713.
With `AGTACGAC` the E-score was -0.159.
`CGAAACGC` gave an E-score of 0.0206.

Mixed results
The fold induction of `PhoQ, residues 284 288 289 292 302 303 SLCLSL` is reported as 4.17 (PhoP, residues 12 14 15 18 19 STHWV (Escherichia coli, UniProt P23836); Sort-seq, refers to: YFP reporter; E. coli; PhoQ-PhoP variant library, with: 10 µM Mg2+; relative to: high Mg2+ state, higher = stronger signaling).

For quick reference, copied from above (block 2):
With `GAATAAGGCCTTTATGGTGTGAAGTGGGTTTTGTAG` the fluorescence intensity was 514 a.u.
With `CCTAACTACTATAGTCACATATAATAGCTTCGTACA` the fluorescence intensity was 508 a.u.
For `GAATGCTGAAGTCATCACCAAAATTTTTCATTTTAG`, the fluorescence intensity was 528 a.u.
